Assay results gathered from unrelated publications.
A part holds a random share of what one study measured. Several values in a cell are separate wells, animals, samples, runs or records.
Chain of UniProt P28335 (whole entry, looked up): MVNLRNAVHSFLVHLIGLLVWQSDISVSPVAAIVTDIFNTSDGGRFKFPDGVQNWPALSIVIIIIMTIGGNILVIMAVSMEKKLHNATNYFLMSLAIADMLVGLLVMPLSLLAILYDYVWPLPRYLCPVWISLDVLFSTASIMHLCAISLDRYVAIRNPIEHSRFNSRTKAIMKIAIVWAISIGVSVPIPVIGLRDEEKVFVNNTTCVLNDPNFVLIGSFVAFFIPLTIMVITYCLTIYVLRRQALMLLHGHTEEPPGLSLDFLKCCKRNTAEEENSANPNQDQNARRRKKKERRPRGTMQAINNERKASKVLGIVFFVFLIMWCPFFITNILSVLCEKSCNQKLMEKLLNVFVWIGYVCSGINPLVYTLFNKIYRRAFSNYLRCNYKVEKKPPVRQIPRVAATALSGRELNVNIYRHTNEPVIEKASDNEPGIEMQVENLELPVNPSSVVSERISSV

Block 1 — action: agonist
Target: Beta-1 adrenergic receptor (ADRB1, Homo sapiens, UniProt P08588)
Chain of UniProt P08588 (whole entry, looked up): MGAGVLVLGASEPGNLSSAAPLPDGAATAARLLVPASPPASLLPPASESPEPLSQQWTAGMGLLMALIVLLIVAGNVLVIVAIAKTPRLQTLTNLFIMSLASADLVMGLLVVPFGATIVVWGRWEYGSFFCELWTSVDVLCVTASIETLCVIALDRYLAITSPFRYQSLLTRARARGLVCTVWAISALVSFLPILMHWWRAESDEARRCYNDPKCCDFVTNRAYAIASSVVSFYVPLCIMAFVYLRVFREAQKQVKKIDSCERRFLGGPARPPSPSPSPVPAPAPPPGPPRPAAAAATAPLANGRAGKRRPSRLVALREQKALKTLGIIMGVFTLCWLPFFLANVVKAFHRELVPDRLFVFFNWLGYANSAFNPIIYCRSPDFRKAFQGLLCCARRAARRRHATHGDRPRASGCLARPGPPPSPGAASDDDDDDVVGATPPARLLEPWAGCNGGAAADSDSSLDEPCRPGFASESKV
SMILES	EC50 [µM]
COc1ccc2c(C)cc(=O)oc2c1	≥ 100
COc1cccc(NC(=O)c2sc3nc(C)c(C(=O)Nc4ccc(C)cc4C)c(-c4ccc(C)o4)c3c2N)c1	≥ 100
O=C(Nc1ccc([C@@H](O)[C@H]2COCC(=O)N2Cc2ccc(F)cc2)cc1)c1ccc2c(c1)OCO2	≥ 100
CC#CCn1cc2c3c(cccc31)[C@H](CC(C)C)N[C@H](C(=O)NCCN1CCOCC1)C2	≥ 100
COc1ccc(F)cc1-c1ncc2c(n1)OCCN(c1cccc(C(F)(F)F)c1)C2=O	≥ 100
COc1ccc(CN2CC[C@@H]3OCC(=O)N(Cc4c[nH]c5ccccc45)[C@H]3CC2)cc1O	≥ 100
c1cc2nnc(C3CCC3)n2nc1N1CCCNCC1	≥ 100
CC1CCCN1C(=O)c1cc(-c2cnn(C(C)C)c2)nc2cc(F)ccc12 (stereo not drawn)	≥ 100

Block 2 — route: subcutaneous; time: 5 days
Structure (SMILES): CC(=O)N[C@@H](Cc1c[nH]c2ccccc12)C(=O)N[C@@H](CCC(=O)C=[N+]=[N-])C(=O)OC(C)C
assay	test system	setting	scale	metabolite peak intensity
UPLC-MS/MS, refers to: hydroxyproline	EL4, C57BL/6 CES1-/- mice, EL4 tumour, tumour	0.3 mg/kg/day DON equivalent, normalised to tissue mass	higher = more metabolite	1.17e+08 a.u. and 2.17e+08 a.u. and 2.41e+08 a.u. and 1.64e+08 a.u. and 1.8e+08 a.u. and 1.53e+08 a.u.
UPLC-MS/MS metabolomics, refers to: guanine	C57BL/6 CES1-/- mice, EL4 tumour, EL4 tumour	0.3 mg/kg/day DON equivalent, normalised to tissue mass		1.6e+06 a.u. and 1.27e+06 a.u. and 1.26e+06 a.u. and 904000 a.u. and 779000 a.u. and 939000 a.u.
UPLC-MS/MS, refers to: 3-(3-hydroxyphenyl)propionate sulfate	C57BL/6 CES1-/- mice, EL4 tumour, EL4 tumour	0.3 mg/kg/day DON equivalent		92800 a.u. and 74700 a.u. and 124000 a.u. and 42400 a.u. and 118000 a.u.
UPLC-MS/MS metabolomics, refers to: gluconate	C57BL/6 CES1-/- mice, EL4 tumour, EL4 tumour	0.3 mg/kg/day DON equivalent, normalised to tissue mass		6.7e+06 a.u. and 9.92e+06 a.u. and 9.79e+06 a.u. and 9.22e+06 a.u. and 8.61e+06 a.u.
LC-MS/MS, refers to: cysteine sulfinic acid	C57BL/6 CES1-/- mice, EL4 tumour	0.3 mg/kg DON equivalent		368000 a.u. and 676000 a.u. and 588000 a.u. and 182000 a.u. and 603000 a.u. and 489000 a.u.
UPLC-MS/MS, refers to: imidazole lactate	EL4, C57BL/6 CES1-/- mice, EL4 tumour, tumour	0.3 mg/kg/day DON equivalent, normalised to tissue mass	higher = more metabolite	2.44e+06 a.u. and 1.56e+06 a.u. and 705000 a.u. and 2.24e+06 a.u. and 1.29e+06 a.u. and 1.72e+06 a.u.
UPLC-MS/MS, refers to: 5-methylthioadenosine	C57BL/6 CES1-/- mice, EL4 tumour, EL4 tumour	0.3 mg/kg/day DON equivalent		4.47e+07 a.u. and 2.6e+07 a.u. and 2.64e+07 a.u. and 4.74e+07 a.u. and 4.21e+07 a.u. and 4.52e+07 a.u.
UPLC-MS/MS, refers to: 5-methylcytidine	C57BL/6 CES1-/- mice, EL4 tumour, EL4 tumour	0.3 mg/kg/day DON equivalent		1.17e+06 a.u. and 1.39e+06 a.u. and 814000 a.u. and 1.23e+06 a.u. and 1.24e+06 a.u.

Further values, each from its own experiment — concentration: 10 µM
SMILES	target or system	assay	test system	setting	scale	quantity	value
O=C(Nc1ccc(-n2nc(-c3cccnc3)cc2C(F)(F)F)cn1)c1ccc(-c2ccccc2)c(F)c1	HTR2C (Homo sapiens, UniProt P28335)	binding, radioligand binding				inhibition	-17.3%
C=C[C@H]1CN2CC[C@H]1C[C@H]2[C@H](O)c1ccnc2ccccc12	Plasmodium berghei		Huh-7, liver stage	24 h	reference: control	parasite load	101%

A few entries again (block 1):
SMILES	EC50 [µM]
CC#CCn1cc2c3c(cccc31)[C@H](CC(C)C)N[C@H](C(=O)NCCN1CCOCC1)C2	≥ 100
